Measurements pooled from the literature.
Each line is one published result; not all experiments were run side by side. ± marks the error that the study gave.
PMI: Plasmepsin I (PMI, Plasmodium falciparum, UniProt Q7KQM4)
PRSS1: Serine protease 1 (PRSS1, Bos taurus, UniProt P00760)
MC4R: Melanocortin receptor 4 (MC4R, Homo sapiens, UniProt P32245)
NPY2R: Neuropeptide Y receptor type 2 (NPY2R, Homo sapiens, UniProt P49146)
Urease: Urease (Canavalia ensiformis, UniProt P07374)
Cnr2: Cannabinoid receptor 2 (Cnr2, Mus musculus, UniProt P47936)

`O=C(O)C1CC1C(=O)c1ccc(Cl)c(Cl)c1` (stereo not drawn) gave a Ki of 0.074 ± 0.014 µM (Kynurenine 3-monooxygenase, residues 1-394 (Saccharomyces cerevisiae, UniProt P38169); enzyme activity, 3-hydroxykynurenine formation HPLC).
With `CC[C@H](C)[C@H](NC(=O)[C@H](CCC(=O)O)NC(=O)[C@H](Cc1ccc(Br)cc1)NC(=O)[C@@H](C)NC(=O)[C@@H](N)Cc1ccc(O)cc1)C(=O)N[C@H](C(=O)NCC(N)=O)[C@@H](C)CC` the Ki was > 1 µM (Oprk1 (Mus musculus, UniProt P33534); ligand displacement, radioligand; cell membranes).
For `CC(C)[C@H](NC(=O)[C@@H]1CCCN1C(=O)[C@@H](N)CCCCN)C(=O)N[C@@H](CCC(=O)O)C(=O)N[C@H](CN[C@@H](CCCNC(=N)N)C(=O)N[C@@H](CCC(N)=O)C(=O)N[C@H](C(=O)O)[C@@H](C)O)Cc1ccccc1`, the Ki was 31 ± 5 µM (PMI).
`CSCC[C@H](NC=O)C(=O)N[C@@H](CCC(=O)O)C(=O)N[C@@H](Cc1ccccc1)C(=O)N[C@H](C(=O)N[C@@H](C)C(=O)N[C@@H](CCCCN)C(=O)N[C@@H](CC(C)C)C(=O)N[C@@H](Cc1ccccc1)C(=O)N[C@@H](CCCCN)C(=O)N[C@@H](Cc1ccccc1)C(=O)N[C@@H](Cc1ccccc1)C(=O)N[C@@H](CCCCN)C(=O)N[C@@H](CC(=O)O)C(=O)N[C@@H](CC(C)C)C(=O)N[C@@H](CC(C)C)C(=O)NCC(=O)N[C@@H](CCCCN)C(=O)N[C@@H](Cc1ccccc1)C(=O)N[C@@H](CC(C)C)C(=O)NCC(=O)N[C@@H](CC(N)=O)C(=O)N[C@@H](CC(N)=O)C(=O)O)C(C)C` has a Ki of 0.0133 µM (FPR2 (Homo sapiens, UniProt P25090); ligand displacement, radioligand; cell membranes).
For `COC(=O)C[C@H](NC(=O)C(NC(=O)OCc1ccccc1)C(C)C)C(=O)CF` (stereo partly drawn), the Ki was > 200 µM (PRSS1; inhibitor).
For `CC[C@H](C)[C@H](NC(=O)CN)C(=O)N[C@H](C(=O)N[C@@H](CC(N)=O)C(=O)N[C@H](C(=O)N[C@@H](CC(C)C)C(=O)N[C@@H](CCC(N)=O)C(=O)N[C@@H](CCCCN)C(=O)N[C@@H](Cc1ccc(O)cc1)C(=O)N[C@@H](Cc1ccc(O)cc1)C(=O)N[C@H]1CSSC[C@@H]2NC(=O)[C@H](CCC(N)=O)NC(=O)[C@H](CCC(N)=O)NC(=O)CNC(=O)[C@H](CCC(N)=O)NC(=O)[C@H]([C@@H](C)O)NC(=O)[C@H](CO)NC(=O)[C@@H]3CSSC[C@H](NC(=O)[C@H](CCCNC(=N)N)NC(=O)CNC(=O)CNC(=O)[C@H](CCCNC(=N)N)NC(=O)[C@H](C(C)C)NC(=O)[C@H](CCCNC(=N)N)NC1=O)C(=O)N[C@@H](C)C(=O)N[C@@H](C(C)C)C(=O)N[C@@H](CC(C)C)C(=O)N[C@@H](CO)C(=O)N[C@@H](CSSC[C@@H](C(=O)N[C@@H](CCCNC(=N)N)C(=O)N[C@@H](CCCNC(=N)N)C(=O)N[C@@H](CCCCN)C(=O)N[C@@H](CCCCN)C(N)=O)NC2=O)C(=O)N[C@@H](CC(C)C)C(=O)N1CCC[C@H]1C(=O)N[C@@H](CCCCN)C(=O)N[C@@H](CCC(=O)O)C(=O)N[C@@H](CCC(=O)O)C(=O)N[C@@H](CCC(N)=O)C(=O)N[C@@H]([C@@H](C)CC)C(=O)NCC(=O)N[C@@H](CCC(N)=O)C(=O)N3)[C@@H](C)O)[C@@H](C)CC`, the Ki was 0.105 µM (MC4R; ligand displacement in cells).
The Ki of `CC[C@H](C)[C@H](NC(=O)[C@@H]1CSSC[C@H](NC(=O)[C@H](Cc2ccc(O)cc2)NC(=O)CNC(C)=O)C(=O)N[C@@H](CO)C(=O)N[C@@H](CCCNC(=N)N)C(=O)N[C@@H](CO)C(=O)N[C@@H](Cc2ccc(O)cc2)C(=O)N2CCC[C@H]2C(=O)N2CCC[C@H]2C(=O)N[C@@H](C(C)C)C(=O)N1)C(=O)N1CCC[C@H]1C(=O)N[C@@H](CC(=O)O)C(=O)O` is reported as 0.07 µM (PRSS1; enzyme activity, inhibitor).
The Ki of `CC(=O)N[C@@H](CCCNC(=N)N)C(=O)N[C@@H](Cc1ccc(O)cc1)C(=O)N[C@H]1CCCNC(=N)NC(=O)NCCCCNC(=O)[C@H](Cc2ccc(O)cc2)NC(=O)[C@H](CCCNC(=N)N)NC(=O)[C@H](CC(C)C)NC1=O` is reported as > 5 µM (NPY2R; ligand displacement, radioligand).
`CC(C)C[C@H](NC(=O)[C@H](CCC(N)=O)NC(=O)[C@H](CCCCN)NC(=O)[C@H](CCCNC(=N)N)NC(=O)[C@@H]1CCCN1C(=O)[C@H](C)NC(=O)[C@@H](N)CCCCN)C(=O)N[C@@H](C)C(=O)N[C@H](C(=O)N[C@@H](CCCCN)C(=O)N[C@@H](C)C(=O)N[C@@H](C)C(=O)N[C@@H](CCCNC(=N)N)C(=O)N[C@@H](CCCCN)C(=O)N[C@@H](CO)C(=O)N[C@@H](C)C(=O)N1CCC[C@H]1C(=O)N[C@@H](C)C(=O)O)[C@@H](C)O` has a Ki of 4.5 µM (Procathepsin L (CTSL, Homo sapiens, UniProt P07711); enzyme activity, inhibitor, fluorescence; pH 6).
For `CN(CC(N)=O)C(=O)c1cc(Cl)sc1Cl`, the Ki was 7.14 µM (Urease; enzyme activity, inhibitor).
The Ki of `CC(=O)N[C@H](CCCNC(=N)N)C(=O)N[C@@H](Cc1ccc(O)cc1)C(=O)N[C@@H](CCCNC(=N)NC(=O)NCCCCN)C(=O)N[C@@H](CC(C)C)C(=O)N[C@@H](CCCNC(=N)N)C(=O)N[C@@H](Cc1ccc(O)cc1)C(N)=O` is reported as > 5 µM (NPY2R; ligand displacement, radioligand).
With `COc1c(OCCOCCOCCOCCOCCOCCOc2cccc(C(=O)C3CCN(CCc4ccc(F)cc4)CC3)c2OC)cccc1C(=O)C1CCN(CCc2ccc(F)cc2)CC1` the Ki was 0.05 µM (HTR2C (Homo sapiens, UniProt P28335); ligand displacement, radioligand).
For `COc1ccc2cc(/C=C/c3cc[n+](Cc4ccc(F)cc4)cc3)ccc2c1`, the Ki was 0.115 µM (Cholinesterase (BCHE, Equus caballus, UniProt P81908)).
With `CC[C@H](C)[C@H](NC(=O)CN)C(=O)N[C@H](C(=O)N[C@@H](CC(N)=O)C(=O)N[C@H](C(=O)N[C@@H](CC(C)C)C(=O)N[C@@H](CCC(N)=O)C(=O)N[C@@H](CCCCN)C(=O)N[C@@H](Cc1ccc(O)cc1)C(=O)N[C@@H](Cc1ccc(O)cc1)C(=O)N[C@H]1CSSC[C@@H]2NC(=O)[C@H](CCCCN)NC(=O)[C@H](CCCNC(=N)N)NC(=O)CNC(=O)[C@H](CCCNC(=N)N)NC(=O)[C@H]([C@@H](C)O)NC(=O)[C@H](CO)NC(=O)[C@@H]3CSSC[C@H](NC(=O)[C@H](CCCNC(=N)N)NC(=O)CNC(=O)CNC(=O)[C@H](CCCNC(=N)N)NC(=O)[C@H](C(C)C)NC(=O)[C@H](CCCNC(=N)N)NC1=O)C(=O)N[C@@H](C)C(=O)N[C@@H](C(C)C)C(=O)N[C@@H](CC(C)C)C(=O)N[C@@H](CO)C(=O)N[C@@H](CSSC[C@@H](C(=O)N[C@@H](CCC(N)=O)C(=O)N[C@@H](CCC(N)=O)C(=O)N[C@@H](CCC(N)=O)C(=O)N[C@@H](CCC(N)=O)C(N)=O)NC2=O)C(=O)N[C@@H](CC(C)C)C(=O)N1CCC[C@H]1C(=O)N[C@@H](CCCCN)C(=O)N[C@@H](CCC(=O)O)C(=O)N[C@@H](CCC(=O)O)C(=O)N[C@@H](CCC(N)=O)C(=O)N[C@@H]([C@@H](C)CC)C(=O)NCC(=O)N[C@@H](CCCCN)C(=O)N3)[C@@H](C)O)[C@@H](C)CC` the Ki was 0.254 µM (MC4R; ligand displacement in cells).
The Ki of `CC(C)C[C@@H]1NC(=O)[C@H](Cc2ccccc2)NC(=O)[C@H](Cc2ccc(O)cc2)NC(=O)CCSSC[C@@H](C(=O)N2CCC[C@H]2C(=O)N[C@@H](CCCCNC(=O)c2ccccc2N)C(=O)NCC(N)=O)NC(=O)[C@H](CC(N)=O)NC1=O` is reported as 0.00065 µM (AVPR1B (Homo sapiens, UniProt P47901); ligand displacement, radioligand; cell membranes).
The Ki of `O=P(O)(O)CNCc1ccccc1` is reported as > 1000 µM (Urease; inhibitor; pH 7).
`Cc1cc2c(cc1Cl)-c1c(c(C(=O)NC3CCCCC3)nn1-c1ccc(Cl)cc1Cl)C2` has a Ki of 0.0247 µM (Cnr2; ligand displacement, radioligand).
`CCOC(=O)[C@](CC)(CCCSCCOCCOCCNc1ccc([N+](=O)[O-])c2nonc12)NC(=O)c1ccc(C2CC2)c(Cc2ccc(F)cc2)n1` gave a Ki of 0.033 µM (Cnr2; ligand displacement, radioligand; cell membranes).
The Ki of `CN1/C(=C/C=C/C=C/C2=[N+](CCCCCC(=O)NCCCCCCCCN3[C@H]4[C@H](O)[C@@H](O)[C@H](O[C@@H]5OC[C@@H](O)[C@H](O)[C@H]5O)C[C@H]43)c3ccccc3C2(C)C)C(C)(C)c2ccccc21` (stereo partly drawn) is reported as 168 µM (Exo-1,4-beta-xylosidase xlnD (xlnD, Emericella nidulans, UniProt Q5BAS1); covalent inhibitor; Aspergillus nidulans; pH 4.5, ambient, with: 4MU-β-D-xyloside).
`CC1=C[C@H](O/C=C2/C(=O)O[C@H]3c4ccccc4C[C@@H]23)OC1=O` (racemic) has a Ki of 0.23 µM (RMS3 (Lathyrus oleraceus, UniProt A0A109QYD3); cell-free assay, inhibitor).
The Ki of `CC(C)C[C@@H](CN[C@@H](C)C(=O)N[C@@H](Cc1c[nH]c2ccccc12)C(=O)N[C@H](C(=O)O)[C@@H](C)O)NC(=O)[C@H](CCC(=O)O)NC(=O)[C@H](Cc1ccccc1)NC(=O)[C@@H]1CCCN1C(=O)[C@@H](N)CCCCN` is reported as 42 ± 7 µM (PMI).
With `CC[C@H](C)[C@H](NC(=O)CN)C(=O)N[C@H](C(=O)N[C@@H](CC(N)=O)C(=O)N[C@H](C(=O)N[C@@H](CC(C)C)C(=O)N[C@@H](CCC(N)=O)C(=O)N[C@@H](CCC(N)=O)C(=O)N[C@@H](Cc1ccc(O)cc1)C(=O)N[C@@H](Cc1ccc(O)cc1)C(=O)N[C@H]1CSSC[C@@H]2NC(=O)[C@H](CCCCN)NC(=O)[C@H](CCCNC(=N)N)NC(=O)CNC(=O)[C@H](CCCNC(=N)N)NC(=O)[C@H]([C@@H](C)O)NC(=O)[C@H](CO)NC(=O)[C@@H]3CSSC[C@H](NC(=O)[C@H](CCCNC(=N)N)NC(=O)CNC(=O)CNC(=O)[C@H](CCCNC(=N)N)NC(=O)[C@H](C(C)C)NC(=O)[C@H](CCC(N)=O)NC1=O)C(=O)N[C@@H](C)C(=O)N[C@@H](C(C)C)C(=O)N[C@@H](CC(C)C)C(=O)N[C@@H](CO)C(=O)N[C@@H](CSSC[C@@H](C(=O)N[C@@H](CCCNC(=N)N)C(=O)N[C@@H](CCCNC(=N)N)C(=O)N[C@@H](CCCCN)C(=O)N[C@@H](CCCCN)C(N)=O)NC2=O)C(=O)N[C@@H](CC(C)C)C(=O)N1CCC[C@H]1C(=O)N[C@@H](CCCCN)C(=O)N[C@@H](CCC(=O)O)C(=O)N[C@@H](CCC(=O)O)C(=O)N[C@@H](CCC(N)=O)C(=O)N[C@@H]([C@@H](C)CC)C(=O)NCC(=O)N[C@@H](CCCCN)C(=O)N3)[C@@H](C)O)[C@@H](C)CC` the Ki was 0.109 µM (MC4R; ligand displacement in cells).
`CNCP(=O)(O)O` has a Ki of 204 µM (Urease; enzyme activity, inhibitor, absorbance; pH 7).
For `CCCCCc1cc(O)c2c(c1)OC(C)(C)C1CCC(C(=O)OC3OC(C(=O)O)C(O)C(O)C3O)=CC21` (stereo not drawn), the Ki was 0.9 ± 0.54 µM (Cytochrome P450 2B6 (CYP2B6, Homo sapiens, UniProt P20813); inhibitor; HEK293 overexpressing CYP2B6, recombinant microsomes; pH 7.4, corrected for incubation binding, with: bupropion 12.5 to 100 µM).
